# Published values gathered from unrelated publications.
# Parts stem from different laboratories: compare values within a part only.

# Block 1 — method: RNA Bind-n-Seq; molecule type: RNA; matrix: in vitro; concentration: 365 nM; reference: no-protein control; reading: higher = stronger binding
# Target: RNA binding protein fox-1 homolog 2, RRM domain, GST-SBP tag (RBFOX2, Homo sapiens, UniProt O43251-10, residues 100-194)
# Notes: natural RNA segment, single round, ends assumed
# All sequences stand within: GGGAGUUCUACAGUCCGACGAUC … UGGAAUUCUCGGGUGCCAA
# Residues (chain): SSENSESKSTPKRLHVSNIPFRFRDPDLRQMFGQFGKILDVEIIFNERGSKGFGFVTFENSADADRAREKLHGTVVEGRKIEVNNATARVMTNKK
Strand,RBNS enrichment (R)
GUUUGUGCAUGAUUGUUUUUAUAUUUCUCAUCAACUACACAACUUUUCCAAGUUAUAAAGUCUACUGCAGCAUUCAUGUGUAGCGGGGAAGCCUACGUAAGCAAACGACU,4.18
UACAUAUGGAUGAAAAUGAAUCUUAGUCACUGAAUAUUCAUAUACAUUUCCCCCAAAACCUUAGACAUUCAUAGUAGAUUUUAAUUAGUUAGCUUUCUAACUAGUCAGAU,0.432
CAUAUUAAAGCACAUAUGUAUAUAUCUUUUAUUUAUAAAUAAAAUUUUAAAACAAUAGUUUCAGUAUAGCCACAAAAGCUCUUUUGUCUUCAGUACAACGUUUGGGAGUU,0.57
UGGACUUGCUUCUGAACACGAAUUCUUCGAGAACUAGGCUCAGAUGCUCUGCUGGAGUGUUGGCCUCACCCCAGUCCCCUUGCCAGCAACAUCACUGCCCUUGGACGAGA,0.29
GACUUGCUUCCUGCAUGGUAGGGAGAGACACAAAAGAUGGGAAACUGCUUUUCCACAAGGAAUCUCCGUAGAAUUUUGCGGCGACCAGAUGGUGCAUAGGUCUGGAAGGU,2.76
UGUAGCAGCCGGGAUGUGACCCUCCAGGGUUUGGGUCGCUUUGCGUUUGUCGAAGCCUCCUCUGAAUGGCUUUGUGAAAUCAAGAUGUUUUAAUCACAUUCACUUUACUU,0.269
CUUUUGCAGACUUUGAACAGAACUCUGGUUCCUGUGUUGCCUCUAAUGAAGUAUUCUGUUCCUAGUUGUGGGUGUGCUGGGUGGAGUGUGAAACACGACAUGAUCAAAGG,0.823
GAGCGAGAGAGAGUGAGGACACCGAACUGGGCUGGCGGCUCCAAAGCACAGCCUUCCCUGUUCCGUCCCAGCGGGAGCUGGUGUUAGGGGUCCCAAGGUUGCCACCCACG,0.274

# Block 2 — target: UBE2Q2 UBC core domain (UniProt Q8WVN8); method: yeast two-hybrid; matrix: yeast; notes: mostly zero background; reference: not given; reading: higher = stronger interaction
# Chain of UniProt Q8WVN8 (whole entry, looked up): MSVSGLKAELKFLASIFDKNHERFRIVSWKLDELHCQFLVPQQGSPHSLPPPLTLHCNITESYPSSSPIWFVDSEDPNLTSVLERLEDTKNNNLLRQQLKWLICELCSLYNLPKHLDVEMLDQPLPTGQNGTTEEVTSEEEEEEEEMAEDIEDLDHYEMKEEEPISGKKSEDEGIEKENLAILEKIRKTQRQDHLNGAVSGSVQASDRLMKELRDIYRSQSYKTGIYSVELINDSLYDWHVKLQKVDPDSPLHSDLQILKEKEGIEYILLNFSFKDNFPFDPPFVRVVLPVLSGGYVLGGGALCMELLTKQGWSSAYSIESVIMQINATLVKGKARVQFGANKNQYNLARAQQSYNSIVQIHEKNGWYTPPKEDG
# B1: NEURL1 RING domain (UniProt O76050); chain VTPGLGQWSDECTICYEHAVDTVIYTCGHMCLCYACGLRLKKALHACCPICRRPIKDIIKT
# B2: RNF111 RING domain (UniProt Q6ZNA4); chain EGTEEDTEEKCTICLSILEEGEDVRRLPCMHLFHQVCVDQWLITNKKCPICRVDIEAQLPSE
# B3: TRIM4 RING domain (UniProt Q9C037); chain EAEDIQEELTCPICLDYFQDPVSIECGHNFCRGCLHRNWAPGGGPFPCPECRHPSAPAALRP
# B4: SH3RF2 RING domain (UniProt Q8TEC5); chain DDLTLLDLLECPVCFEKLDVTAKVLPCQHTFCKPCLQRVFKAHKELRCPECRTPVFSNIEAL
# B5: MKRN1 RING domain (UniProt Q9UHC7); chain FAVQRSKDMVCGICMEVVYEKANPSERRFGILSNCNHTYCLKCIRKWRSAKQFESKIIKSCPECRITSNFVIPSE
Molecule,lacZ reporter activity
DHGAVGQEMCCPICCSEYVKGEVATELPCHHYFHKPCVSIWLQKSGTCPVCRCMFPPPL (PJA1 RING domain (UniProt Q8NG27)),0
B1 (NEURL1 RING domain),0
B2 (RNF111 RING domain),0
B3 (TRIM4 RING domain),0
B4 (SH3RF2 RING domain),0
GAAPGPEAAECLVCSELALLVLFSPCQHRTVCEECARRMKKCIRCQVVVSKKLRPD (MIB2 RING domain (UniProt Q96AX9)),0
B5 (MKRN1 RING domain),0
ASLPTSEEDLCPICYAHPISAVFQPCGHKSCKACINQHLMNNKDCFFCKTTIVSVEDWE (RNF123 RING domain (UniProt Q5XPI4)),0

# Block 3 — method: universal PBM; molecule type: double-stranded DNA, one strand shown; matrix: in vitro; concentration: 600 nM; reading: higher = stronger binding
# Target: Sal-like protein 4, full length isoform A (SALL4, Homo sapiens, UniProt Q9UJQ4, residues 1-1053)
# Chain of UniProt Q9UJQ4 (whole entry, looked up): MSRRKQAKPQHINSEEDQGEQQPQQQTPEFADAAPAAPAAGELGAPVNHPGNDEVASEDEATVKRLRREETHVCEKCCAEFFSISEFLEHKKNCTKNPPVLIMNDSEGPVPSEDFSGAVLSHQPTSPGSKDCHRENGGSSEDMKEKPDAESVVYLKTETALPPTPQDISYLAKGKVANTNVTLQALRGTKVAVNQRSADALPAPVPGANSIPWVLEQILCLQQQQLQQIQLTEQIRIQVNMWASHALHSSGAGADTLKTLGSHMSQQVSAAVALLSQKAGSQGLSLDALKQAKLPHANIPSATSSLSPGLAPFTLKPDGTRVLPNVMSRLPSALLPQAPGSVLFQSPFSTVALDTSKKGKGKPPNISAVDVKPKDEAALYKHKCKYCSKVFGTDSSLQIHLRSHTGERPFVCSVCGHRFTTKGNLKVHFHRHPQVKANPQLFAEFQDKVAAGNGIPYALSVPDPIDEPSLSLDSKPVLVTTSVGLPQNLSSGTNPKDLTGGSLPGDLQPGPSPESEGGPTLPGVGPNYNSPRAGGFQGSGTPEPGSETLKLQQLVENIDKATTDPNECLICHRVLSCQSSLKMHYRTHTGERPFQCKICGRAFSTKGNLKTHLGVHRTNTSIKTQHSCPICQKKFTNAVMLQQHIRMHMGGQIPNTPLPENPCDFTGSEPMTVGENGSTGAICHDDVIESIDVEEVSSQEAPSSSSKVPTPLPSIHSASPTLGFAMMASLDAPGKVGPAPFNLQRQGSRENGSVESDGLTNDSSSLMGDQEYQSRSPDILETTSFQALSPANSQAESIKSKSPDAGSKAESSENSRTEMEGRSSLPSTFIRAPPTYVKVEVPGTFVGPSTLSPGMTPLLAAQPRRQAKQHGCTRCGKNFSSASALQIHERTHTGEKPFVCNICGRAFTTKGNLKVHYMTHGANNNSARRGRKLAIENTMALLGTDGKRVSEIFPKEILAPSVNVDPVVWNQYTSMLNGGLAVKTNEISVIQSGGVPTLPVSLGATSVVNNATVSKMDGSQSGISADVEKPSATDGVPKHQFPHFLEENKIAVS
# Notes: 8-mer, flanks averaged, mean of replicates
Strand,E-score
CAGCGACA,-0.168
ATTGTTCC,0.0224
GGCCGTCA,-0.249
GGCTAGCA,-0.137
AGTCCGAG,-0.209
AACCCAAG,-0.0552
AACCTAAT,0.105
ACCTAGCG,-0.0897

# Single results of other studies
Molecule,target,read-out,molecule type,concentration,measurement,value
FQAGWEDPT,"HLA class I histocompatibility antigen, A alpha chain, allele A*80:01 (Homo sapiens, UniProt P04439)",peptide-MHC binding,peptide,concentration not given,binding,inactive

# For quick reference, copied from above (block 2):
Molecule,lacZ reporter activity
B3 (TRIM4 RING domain),0
B4 (SH3RF2 RING domain),0
